Measurements from different studies.
NUAK1: NUAK family SNF1-like kinase 1 (NUAK1, Homo sapiens, UniProt O60285)
Chain of UniProt O60285 (whole entry, looked up): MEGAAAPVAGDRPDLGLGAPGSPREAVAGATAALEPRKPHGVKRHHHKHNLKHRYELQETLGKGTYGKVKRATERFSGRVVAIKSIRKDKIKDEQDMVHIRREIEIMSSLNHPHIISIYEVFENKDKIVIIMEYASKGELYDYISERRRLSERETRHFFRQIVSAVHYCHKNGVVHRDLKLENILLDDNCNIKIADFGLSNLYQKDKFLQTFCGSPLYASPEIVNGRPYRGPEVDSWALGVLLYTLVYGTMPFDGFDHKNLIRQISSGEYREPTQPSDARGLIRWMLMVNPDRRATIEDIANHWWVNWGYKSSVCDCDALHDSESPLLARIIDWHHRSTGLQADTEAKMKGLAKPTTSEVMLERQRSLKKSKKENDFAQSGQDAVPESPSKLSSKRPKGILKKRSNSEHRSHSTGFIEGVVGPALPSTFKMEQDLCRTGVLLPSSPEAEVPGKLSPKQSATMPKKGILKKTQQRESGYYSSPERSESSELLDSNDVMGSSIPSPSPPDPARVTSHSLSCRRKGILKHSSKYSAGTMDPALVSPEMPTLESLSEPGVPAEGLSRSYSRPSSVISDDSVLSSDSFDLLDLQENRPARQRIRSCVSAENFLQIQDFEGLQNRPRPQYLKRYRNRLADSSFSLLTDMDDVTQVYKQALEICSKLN
UCHL1: Ubiquitin carboxyl-terminal hydrolase isozyme L1 (UCHL1, Homo sapiens, UniProt P09936)
Chain of UniProt P09936 (whole entry, looked up): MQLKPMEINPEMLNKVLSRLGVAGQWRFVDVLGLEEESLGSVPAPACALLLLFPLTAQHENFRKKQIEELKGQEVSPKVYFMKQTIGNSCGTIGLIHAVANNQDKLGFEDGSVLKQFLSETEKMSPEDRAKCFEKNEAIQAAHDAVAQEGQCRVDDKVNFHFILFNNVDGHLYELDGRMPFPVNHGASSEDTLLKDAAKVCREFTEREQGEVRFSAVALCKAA

Structure (SMILES) = C1=C/COCc2cc(ccc2OCCN2CCCC2)Nc2nccc(n2)-c2cccc(c2)COC/1; target = NUAK1; conditions = concentration not given, gene name ARK5; quantity = percent of control; result = 39%
Structure (SMILES) = C[C@@H](c1ccc(-n2cnc3c(N)ncnc32)cc1)N1CCc2nn(C)c(Cc3ccccc3)c2C1=O; target = NUAK1; assay = KINOMEscan; conditions = 0.1 µM; how to read = reference: DMSO; quantity = remaining binding; result = 96%
Structure (SMILES) = C=CC(=O)N1CCC(C(=O)NCC(=O)N2CCN(c3nc(-c4cnc(N)nc4C(F)F)nc(N4CCOCC4)n3)CC2)CC1; target = NUAK1; assay = KINOMEscan; conditions = 1 µM; quantity = remaining binding; result = 99%
Structure (SMILES) = O=C1NC(=O)/C(=C/c2ccc(-c3ccc(F)cc3O)o2)S1; target = NUAK1; assay = enzyme activity; conditions = 10 µM; quantity = remaining activity; result = 73%
Structure (SMILES) = COc1cc(F)ccc1-c1ncnc(Nc2cccc(C[S@](C)(=N)=O)c2)n1; target = NUAK1; assay = kinase activity; conditions = 10 µM, together with: 10 µM ATP; quantity = remaining activity; result = 39%
Structure (SMILES) = C=CC(=O)N1CCC(COCC(=O)N2CCN(c3nc(-c4cnc(N)nc4C(F)F)nc(N4CCOC[C@@H]4C)n3)CC2)CC1; target = NUAK1; assay = KINOMEscan; conditions = 1 µM; how to read = reference: DMSO control; quantity = remaining binding; result = 100%
Structure (SMILES) = O=C(NC1CCC1)c1ccc2nc(-c3cccc(NS(=O)(=O)NCCN4CCCCC4)c3)cn2c1; target = NUAK1; assay = enzyme activity; conditions = 10 µM; quantity = remaining activity; result = 95%
Structure (SMILES) = CC(NC(=O)C(C#N)=Cc1cc(O)ccc1[N+](=O)[O-])c1ccccc1 (centres unmarked); target = UCHL1; assay = covalent, intact protein LC-MS; conditions = 12.5 µM; quantity = labelling; result = 9.91%
Structure (SMILES) = CCCOc1ccc(OC)c(F)c1C(=O)c1ccc(C(=O)N[C@@H]2CNC[C@H]2NC(=O)c2ccc3[nH]ncc3c2)cc1; target = NUAK1; assay = enzyme activity; conditions = 10 µM; quantity = remaining activity; result = 5%
Structure (SMILES) = COc1cc(-c2cncc3c2CN(C)Cc2cc(N4CCNCC4)ccc2-3)cc(OC)c1OC; target = NUAK1; assay = kinase activity; conditions = 1 µM, human enzyme, together with: ATP 10 µM; how to read = reference: DMSO control; quantity = remaining activity; result = 91%
Structure (SMILES) = CCN(CC)c1ccc(C2=NNC(=O)CC2C)cc1[N+](=O)[O-] (centres unmarked); target = NUAK1; assay = enzyme activity, inhibitor; conditions = 10 µM; how to read = reference: vehicle; quantity = remaining activity; result = 85%
Structure (SMILES) = CNc1ncc2c(/C=C/C(=O)N3CCC(OC)CC3)nn(Cc3cccc(C(F)(F)F)c3)c2n1; target = NUAK1; assay = kinase activity, inhibitor; conditions = 1 µM; how to read = reference: untreated control; quantity = remaining activity; result = 94%
Structure (SMILES) = N#CC(=Cc1ccncc1)C(=O)Nc1ccccc1Cl; target = UCHL1; assay = covalent, intact protein LC-MS; conditions = 12.5 µM; quantity = labelling; result = 10.2%
Structure (SMILES) = Cc1cc(Nc2cc(N3CCN(C)CC3)nc(Sc3ccc(NC(=O)C4CC4)cc3)n2)[nH]n1; target = NUAK1; assay = kinase activity, KinaseProfiler; conditions = 0.03 µM, species human; how to read = reference: control; quantity = remaining activity; result = 79%

Excerpt of the above:
Structure (SMILES) = CNc1ncc2c(/C=C/C(=O)N3CCC(OC)CC3)nn(Cc3cccc(C(F)(F)F)c3)c2n1; target = NUAK1; assay = kinase activity, inhibitor; conditions = 1 µM; how to read = reference: untreated control; quantity = remaining activity; result = 94%
Structure (SMILES) = O=C(NC1CCC1)c1ccc2nc(-c3cccc(NS(=O)(=O)NCCN4CCCCC4)c3)cn2c1; target = NUAK1; assay = enzyme activity; conditions = 10 µM; quantity = remaining activity; result = 95%
